Assay results gathered from unrelated publications.
Numbered parts are unrelated; each lists some results of a single study. Substitutions count along the parent as printed.

Set 1
Target: CCND2, cyclin fold, Cln2 fusion (human)
Method: yeast growth competition, sequencing
Medium: yeast
Notes: weak parent motif
Reference: not given
Direction: higher = stronger binding
Starting sequence: MICAL3 docking peptide (human); LQLRRQLSFSEDS
`L3T`: “normalised enrichment score” 0.707.
For `S8F`, “normalised enrichment score” read 0.189.
`Q6W`: “normalised enrichment score” -0.287.
`S8E` — result for “normalised enrichment score”: 0.16.
`F9Q`: “normalised enrichment score” -0.0437.
Under “normalised enrichment score”, `E11C` is recorded as 0.159.
`R5I` — result for “normalised enrichment score”: 0.486.
For `E11P`, “normalised enrichment score” read 0.343.
For `D12C`, “normalised enrichment score” read 0.0446.
Under “normalised enrichment score”, `D12P` is recorded as 0.327.
Under “normalised enrichment score”, `L3R` is recorded as 0.437.
Under “normalised enrichment score”, `Q6A` is recorded as 0.196.

Set 2
Target: PABPC1L2, full length, GST fusion (mouse, UniProt A0ABA7IW68)
Method: RNAcompete
Form: RNA
Medium: in vitro
Concentration: 20 nM
Notes: 7-mer, probes averaged, single round
Reference: mean of 7-mers
Direction: higher = stronger binding
Target sequence (chain): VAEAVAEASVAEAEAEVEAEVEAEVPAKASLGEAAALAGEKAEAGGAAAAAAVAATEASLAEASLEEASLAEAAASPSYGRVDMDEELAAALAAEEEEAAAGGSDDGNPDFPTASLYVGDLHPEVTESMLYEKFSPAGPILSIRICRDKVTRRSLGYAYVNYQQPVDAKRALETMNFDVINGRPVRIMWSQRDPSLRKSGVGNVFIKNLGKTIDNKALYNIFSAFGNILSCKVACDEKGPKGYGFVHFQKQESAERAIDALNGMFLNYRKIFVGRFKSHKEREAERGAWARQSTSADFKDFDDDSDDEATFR
With `GUAUCCA` the 7-mer Z-score was -0.224.
`CUAAUGU` gave a 7-mer Z-score of -0.213.
For `CAGCAGG`, the 7-mer Z-score was 0.153.
`CUGGCGU` gave a 7-mer Z-score of -0.144.
`CAUCUUC` gave a 7-mer Z-score of -0.434.
With `AUGCAUA` the 7-mer Z-score was -0.0989.
`CAGCACA` has a 7-mer Z-score of -0.0355.
For `CCCUUCU`, the 7-mer Z-score was -0.469.
For `GCUUUAG`, the 7-mer Z-score was -0.0518.

Set 3
Target: RNA binding protein fox-1 homolog 2, RRM domain, GST-SBP tag (RBFOX2, Homo sapiens, UniProt O43251-10, residues 100-194)
Method: RNA Bind-n-Seq
Form: RNA
Medium: in vitro
Concentration: 365 nM
Notes: natural RNA segment, single round, ends assumed
Reference: no-protein control
Direction: higher = stronger binding
Constant ends, left off below: GGGAGUUCUACAGUCCGACGAUC … UGGAAUUCUCGGGUGCCAA
For `ACAAUGAAUUCAAUCUAUCAGGAUGUUCAUUUUUGGUAGGGAAUGGUUAAAAGAAAAGAACAAUAAGAUGCAUUCAAAGAAUAAUUGCUUUCAGCCUGCUGCCUAAAUCG`, “RBNS enrichment (R)” read 1.29.
`UGUGCCACCUCCCCUAUGAGUGACGUGUUUGAUCACUAGCAGAAUAGCAAGCAGAGUAUCAUUCAUGCUGGGGCCAGAAUGAUGGCCGGUUGCCAGAUAUAACUGCUUUG`: “RBNS enrichment (R)” 0.528.
Under “RBNS enrichment (R)”, `AAAUCCCUUGGCCGCACUUUUAAGGUUUUUUUAUAUGUGUAUAGUUACCAACCUAAAAAUAAAAAAUCCGAACAGCAUACUUGAAGAAUGUAAUACUCAAACUCUCAGUG` is recorded as 2.46.
`AAGGCUUGUGAUUUGACCUGAGACAUUUGUUUCAGGUAAUCGUGUAGAAUGAAGUAUCUUAGUUUAAAGGGUAAGAGAGAAGUUGUUUCUGGUUUUUCCUUGCCCCUGUG` — result for “RBNS enrichment (R)”: 0.406.
`CAACAUGAUAAUUUAUGUAACUGAUAGCUUCUGUCCUUAUUAGUACACUUAACAUUUGAGACUAGUAUUUAUUGAUCCAGGCAAAGUAAUUAAUUAAUCAUGCUUGGGCU` — result for “RBNS enrichment (R)”: 0.451.
`UGGAUAUUUAUCUGCAUAUGCAAAUUAAAAUAAUUAGAAACUUUCUACCUAGUACGUCAUGUUGUACUAGGUACAUGAUGCUGGUCAGCCAUCCUUAAUCCAAAAUUUUG` — result for “RBNS enrichment (R)”: 0.383.
For `GGGGACGGGGUCUGUGAGAGUCAAUUCAGGGGAAAGAUACAAGAUUGAUUUGUAAAACCCUUGAAAUGUAGAUUUCUUGUAGAUGUAUCCUUCACGUUGUAAAUAUGUUU`, “RBNS enrichment (R)” read 0.59.
`CCAGGAUAAUGAGCGUUGCUGACACCCUUGCUAGCUUGUCCUGCCUACCUGCUUACCCCACUCCCUCACCUUCCUCCUUCCCUUCUGCCCUCCAUCCACCUGCCUUAACU` — result for “RBNS enrichment (R)”: 1.24.
For `CAGCCGGAAGGCCAGCGCCUGGGAUGGAGCCAGCAGAACCCCAUGCCGAGGUCCAGGAGGCCUUGCCUGCUCUUCAUCUGCCUGCGAGCUGUAGGACCUGCAUGGGAAAU`, “RBNS enrichment (R)” read 2.16.
For `UAGCGACAUCCAGAACACAAGCCCACCAGGGGUCCAGCCCAGGCUACCCACUCCCCUAGGGUCUCCCAGGCUCAGAAGGGGAUGCACGCCCCCUGUGGUCAAGCCUCUGG`, “RBNS enrichment (R)” read 0.507.
`UGUUGUUCAUCUAAAGCUUUUUAAUCCAAAUAAAUACAGAGUUUGCAAAGUGAUUUGGAUUAACCAGUUUGGUUGUUCUGUUAAAGUGGUGUCAGAUGUUUCAAGCAGAU`: “RBNS enrichment (R)” 1.64.

Single results of other studies
For `PhoQ, residues 284 288 289 292 302 303 SIHLQL`, the fold induction was 0.481 (PhoP, residues 12 14 15 18 19 AWHSL (Escherichia coli, UniProt P23836); Sort-seq, measured: YFP reporter; E. coli; PhoQ-PhoP variant library, together with: 10 µM Mg2+; reference: high Mg2+ state, higher = stronger signaling).

A few entries again (set 1):
Under “normalised enrichment score”, `L3R` is recorded as 0.437.
Under “normalised enrichment score”, `Q6A` is recorded as 0.196.
For `D12C`, “normalised enrichment score” read 0.0446.
Under “normalised enrichment score”, `E11C` is recorded as 0.159.
